Measured values pooled from the literature.
Every numbered part comes from another study and shows a few of its results, in no order. Values joined by “and” are separate records of one study, mostly repeats; a detail may differ.
Chain of UniProt Q13188 (whole entry, looked up): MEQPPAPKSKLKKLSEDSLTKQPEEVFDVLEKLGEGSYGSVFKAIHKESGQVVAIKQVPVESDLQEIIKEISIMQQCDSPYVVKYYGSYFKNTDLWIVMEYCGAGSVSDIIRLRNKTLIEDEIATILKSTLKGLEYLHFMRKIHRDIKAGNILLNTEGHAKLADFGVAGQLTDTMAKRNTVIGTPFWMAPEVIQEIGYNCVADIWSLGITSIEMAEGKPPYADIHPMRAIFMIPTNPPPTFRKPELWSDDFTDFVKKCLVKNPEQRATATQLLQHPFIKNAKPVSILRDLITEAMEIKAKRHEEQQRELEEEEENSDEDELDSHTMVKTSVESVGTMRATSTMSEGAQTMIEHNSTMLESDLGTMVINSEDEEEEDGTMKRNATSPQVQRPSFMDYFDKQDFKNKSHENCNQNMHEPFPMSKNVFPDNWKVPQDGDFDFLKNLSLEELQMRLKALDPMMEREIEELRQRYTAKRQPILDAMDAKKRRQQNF
Chain of UniProt Q05397 (whole entry, looked up): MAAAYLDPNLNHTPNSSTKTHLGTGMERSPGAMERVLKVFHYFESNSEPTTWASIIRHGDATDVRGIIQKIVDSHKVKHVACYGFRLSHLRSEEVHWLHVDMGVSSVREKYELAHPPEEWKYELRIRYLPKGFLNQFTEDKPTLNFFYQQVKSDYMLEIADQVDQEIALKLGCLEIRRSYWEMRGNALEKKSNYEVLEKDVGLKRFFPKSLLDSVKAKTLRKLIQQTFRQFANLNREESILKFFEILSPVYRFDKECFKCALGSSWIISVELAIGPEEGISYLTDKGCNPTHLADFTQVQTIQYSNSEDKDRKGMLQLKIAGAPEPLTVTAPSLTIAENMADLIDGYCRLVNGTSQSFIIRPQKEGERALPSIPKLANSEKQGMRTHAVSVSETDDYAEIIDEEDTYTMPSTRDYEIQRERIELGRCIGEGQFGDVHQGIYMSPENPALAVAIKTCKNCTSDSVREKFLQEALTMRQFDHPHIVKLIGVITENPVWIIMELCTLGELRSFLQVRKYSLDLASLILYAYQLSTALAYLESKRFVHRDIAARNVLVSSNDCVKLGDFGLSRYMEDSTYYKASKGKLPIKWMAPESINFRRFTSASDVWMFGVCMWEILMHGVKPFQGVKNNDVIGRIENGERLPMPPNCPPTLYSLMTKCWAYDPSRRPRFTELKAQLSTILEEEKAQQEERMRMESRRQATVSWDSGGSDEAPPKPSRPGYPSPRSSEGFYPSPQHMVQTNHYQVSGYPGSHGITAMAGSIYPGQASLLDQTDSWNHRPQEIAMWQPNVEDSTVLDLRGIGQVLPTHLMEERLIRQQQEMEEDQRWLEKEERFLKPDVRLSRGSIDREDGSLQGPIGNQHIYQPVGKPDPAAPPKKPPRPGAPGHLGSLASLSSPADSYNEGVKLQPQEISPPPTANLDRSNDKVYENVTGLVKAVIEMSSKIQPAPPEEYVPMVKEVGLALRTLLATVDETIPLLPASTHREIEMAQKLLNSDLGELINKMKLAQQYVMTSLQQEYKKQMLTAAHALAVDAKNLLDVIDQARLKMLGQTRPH
Chain of UniProt Q00534 (whole entry, looked up): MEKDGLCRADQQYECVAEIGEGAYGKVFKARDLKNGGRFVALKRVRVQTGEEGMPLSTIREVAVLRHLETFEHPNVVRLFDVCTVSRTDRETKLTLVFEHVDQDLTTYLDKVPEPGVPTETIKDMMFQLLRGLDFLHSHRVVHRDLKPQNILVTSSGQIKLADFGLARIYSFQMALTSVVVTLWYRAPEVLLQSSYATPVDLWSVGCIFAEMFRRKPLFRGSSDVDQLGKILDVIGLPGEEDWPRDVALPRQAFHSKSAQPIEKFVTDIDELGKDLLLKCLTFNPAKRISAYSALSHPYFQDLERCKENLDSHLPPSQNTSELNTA
Chain of UniProt P42336 (whole entry, looked up): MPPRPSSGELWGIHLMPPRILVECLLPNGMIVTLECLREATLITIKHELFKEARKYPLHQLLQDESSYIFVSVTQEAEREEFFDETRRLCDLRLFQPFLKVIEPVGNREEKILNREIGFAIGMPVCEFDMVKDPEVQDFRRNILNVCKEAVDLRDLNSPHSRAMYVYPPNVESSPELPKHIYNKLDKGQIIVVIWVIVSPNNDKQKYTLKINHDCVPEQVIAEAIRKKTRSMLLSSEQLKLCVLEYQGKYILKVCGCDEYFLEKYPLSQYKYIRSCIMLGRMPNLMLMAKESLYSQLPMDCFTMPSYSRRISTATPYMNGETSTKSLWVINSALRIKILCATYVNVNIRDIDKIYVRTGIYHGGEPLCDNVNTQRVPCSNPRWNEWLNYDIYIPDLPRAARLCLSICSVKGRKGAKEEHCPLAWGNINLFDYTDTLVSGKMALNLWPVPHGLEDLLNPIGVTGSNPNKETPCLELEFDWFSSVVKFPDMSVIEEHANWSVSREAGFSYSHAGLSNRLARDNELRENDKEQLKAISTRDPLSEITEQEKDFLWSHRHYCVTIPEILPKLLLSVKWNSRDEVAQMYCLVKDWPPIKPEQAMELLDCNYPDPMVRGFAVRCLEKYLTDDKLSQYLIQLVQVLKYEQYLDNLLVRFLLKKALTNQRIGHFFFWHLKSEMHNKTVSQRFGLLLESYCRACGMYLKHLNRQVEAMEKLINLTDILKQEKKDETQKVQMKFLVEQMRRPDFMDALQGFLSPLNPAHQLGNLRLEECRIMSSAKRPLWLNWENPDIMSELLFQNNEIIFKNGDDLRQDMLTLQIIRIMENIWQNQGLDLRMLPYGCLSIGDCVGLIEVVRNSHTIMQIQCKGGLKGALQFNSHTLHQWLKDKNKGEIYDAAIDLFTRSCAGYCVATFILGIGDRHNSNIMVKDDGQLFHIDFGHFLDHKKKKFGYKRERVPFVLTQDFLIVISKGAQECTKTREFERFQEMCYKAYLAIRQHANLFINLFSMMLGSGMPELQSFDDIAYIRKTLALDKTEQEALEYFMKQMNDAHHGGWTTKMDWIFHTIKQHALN
Chain of UniProt P43403 (whole entry, looked up): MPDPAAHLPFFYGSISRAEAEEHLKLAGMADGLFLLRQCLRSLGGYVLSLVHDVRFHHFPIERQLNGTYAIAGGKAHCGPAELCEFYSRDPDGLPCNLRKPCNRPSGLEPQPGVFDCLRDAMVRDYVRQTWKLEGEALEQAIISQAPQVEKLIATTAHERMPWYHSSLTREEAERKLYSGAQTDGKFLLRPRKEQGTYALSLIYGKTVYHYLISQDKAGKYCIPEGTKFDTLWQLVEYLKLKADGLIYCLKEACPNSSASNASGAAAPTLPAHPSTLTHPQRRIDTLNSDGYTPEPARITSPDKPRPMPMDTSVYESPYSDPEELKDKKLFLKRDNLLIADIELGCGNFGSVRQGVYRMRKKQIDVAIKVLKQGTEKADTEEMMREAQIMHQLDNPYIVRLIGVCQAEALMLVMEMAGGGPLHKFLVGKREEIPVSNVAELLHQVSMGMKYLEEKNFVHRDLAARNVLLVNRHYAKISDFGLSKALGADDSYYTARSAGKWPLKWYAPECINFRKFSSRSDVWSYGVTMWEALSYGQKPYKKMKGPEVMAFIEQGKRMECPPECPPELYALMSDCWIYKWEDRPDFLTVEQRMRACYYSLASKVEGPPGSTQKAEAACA
Chain of UniProt Q96GD4 (whole entry, looked up): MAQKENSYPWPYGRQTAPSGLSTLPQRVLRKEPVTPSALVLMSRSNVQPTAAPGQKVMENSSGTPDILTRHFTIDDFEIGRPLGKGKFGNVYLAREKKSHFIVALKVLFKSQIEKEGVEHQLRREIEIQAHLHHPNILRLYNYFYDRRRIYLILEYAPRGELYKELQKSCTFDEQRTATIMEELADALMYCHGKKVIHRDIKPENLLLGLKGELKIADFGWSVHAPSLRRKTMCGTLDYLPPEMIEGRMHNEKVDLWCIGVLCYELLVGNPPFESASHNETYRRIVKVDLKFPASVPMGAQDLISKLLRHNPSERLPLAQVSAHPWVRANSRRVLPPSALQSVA

Set 1 — observed: enzyme activity; mode: inhibitor; tested at: 0.5 µM; reference: control
Compound: COC[C@H]1OC(=O)c2coc3c2[C@@]1(C)C1=C(C3=O)[C@@H]2CCC(=O)[C@@]2(C)C[C@H]1OC(C)=O
target | remaining activity [%]
Aurora kinase B (AURKB, Homo sapiens, UniProt Q96GD4) | 94.2
Serine/threonine-protein kinase 3 (STK3, Homo sapiens, UniProt Q13188) | 79.5
Focal adhesion kinase 1 (PTK2, Homo sapiens, UniProt Q05397) | 98.2
Cyclin-dependent kinase 6, with cyclin D1 (CDK6, Homo sapiens, UniProt Q00534) | 90.1
Tyrosine-protein kinase ZAP-70 (ZAP70, Homo sapiens, UniProt P43403) | 91.6

Set 2 — medium: plasma; route: oral
Compound: CNC(=O)c1ccc(-c2cnn3ccc(C(=O)N(C)c4ccc(Cl)c(C(=O)O)c4)cc23)cc1
test system | setting | Cmax [ng/mL]
female C57BL/6 mouse | 1 mg/kg/day | 1
beagle dog | 15 mg/kg/day, multiple doses | 8.68
beagle dog | 50 mg/kg/day, multiple doses | 16.6
bovine | 20 mg/kg/day | 11.1
beagle dog | 250 mg/kg/day, multiple doses | 34.2
Wistar rat, both sexes | 50 mg/kg/day, 2 weeks, GLP toxicology study | 28.9
Wistar rat, both sexes | 250 mg/kg/day, 2 weeks, GLP toxicology study | 109
female C57BL/6 mouse | 10 mg/kg/day | 15.5

Single results of other studies
Eukaryotic initiation factor 4A-III: Eukaryotic initiation factor 4A-III (Homo sapiens, UniProt P38919)
Chain of UniProt P38919 (whole entry, looked up): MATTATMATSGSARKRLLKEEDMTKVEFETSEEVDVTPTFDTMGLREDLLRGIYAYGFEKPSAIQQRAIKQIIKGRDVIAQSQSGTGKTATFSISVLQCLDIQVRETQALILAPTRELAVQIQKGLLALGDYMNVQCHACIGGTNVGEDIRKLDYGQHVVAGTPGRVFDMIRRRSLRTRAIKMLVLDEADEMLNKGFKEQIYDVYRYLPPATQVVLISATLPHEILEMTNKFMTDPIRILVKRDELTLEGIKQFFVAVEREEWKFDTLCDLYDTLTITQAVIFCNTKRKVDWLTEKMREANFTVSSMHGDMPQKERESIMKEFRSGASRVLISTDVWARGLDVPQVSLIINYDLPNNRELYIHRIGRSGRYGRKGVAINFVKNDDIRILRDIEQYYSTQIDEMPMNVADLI
HTR2C: 5-hydroxytryptamine receptor 2C (HTR2C, Homo sapiens, UniProt P28335)
Chain of UniProt P28335 (whole entry, looked up): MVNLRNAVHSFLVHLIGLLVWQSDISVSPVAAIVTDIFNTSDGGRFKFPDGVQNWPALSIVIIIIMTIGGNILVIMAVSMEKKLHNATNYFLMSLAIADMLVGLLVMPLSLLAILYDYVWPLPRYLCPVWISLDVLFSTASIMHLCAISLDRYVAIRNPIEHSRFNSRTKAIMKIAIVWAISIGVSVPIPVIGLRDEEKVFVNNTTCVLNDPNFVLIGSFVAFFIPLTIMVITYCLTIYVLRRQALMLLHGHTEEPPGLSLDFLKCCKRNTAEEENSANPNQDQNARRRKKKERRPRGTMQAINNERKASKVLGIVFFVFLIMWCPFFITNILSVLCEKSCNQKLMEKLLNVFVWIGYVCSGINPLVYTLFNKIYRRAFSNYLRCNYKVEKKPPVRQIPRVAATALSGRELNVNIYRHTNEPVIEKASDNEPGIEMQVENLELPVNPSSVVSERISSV
SMILES | target | assay | setting | quantity | result
CNC(=O)c1ccc(Nc2ncc(C(F)(F)F)c(NCc3nccnc3N(C)S(C)(=O)=O)n2)cc1 | Calcium-dependent protein kinase 1 (CDPK1, Plasmodium falciparum, UniProt P62344) | cell-free assay, competition with immobilised ligand | 0.1 µM | remaining binding | 85%
COc1ccc(-c2nc3c(c(=O)[nH]2)[C@H](c2ccccc2)[C@@]2(c4ccc(OC)cc4)Oc4cc(OC)cc(OC)c4[C@@]32O)cc1 | Eukaryotic initiation factor 4A-III | RNA clamping, fluorescence polarization | concentration not given, together with: FAM-labelled poly r(AG)8 RNA | fluorescence polarization change | 19 mP
Cc1nc(C2CCN(C(=O)c3ccc(OC(F)(F)F)cc3N)CC2)c2ncc(N3CCN(C)CC3)cc2n1 | HTR2C | binding, radioligand binding | 10 µM | inhibition | -14.6%
CONC(=O)[C@H]1[C@@H](O)[C@@]2(O)c3c(OC)cc(OC)cc3O[C@@]2(c2ccc(Br)cc2)[C@@H]1c1ccccc1 | Eukaryotic initiation factor 4A-III | RNA clamping, fluorescence polarization | concentration not given, together with: FAM-labelled poly r(AG)8 RNA | fluorescence polarization change | 50.9 mP and 2.4 mP and 58.2 mP
CCCCN(CCCC)C(=O)CN1C[C@@H](c2cc(OC)c3c(c2)OCO3)[C@H](C(=O)O)[C@H]1CC(C)(C)CCC | Phosphatidylinositol 4,5-bisphosphate 3-kinase catalytic subunit alpha isoform (PIK3CA, Homo sapiens, UniProt P42336) | cell-free assay, competition with immobilised ligand | 1 µM | remaining binding | 95.9%
O=C(Nc1cnc(Oc2ccc(F)cc2)nc1)N1CCc2ncccc2[C@@H]1c1ccc(F)cc1 | HTR2C | binding, radioligand binding | 10 µM | inhibition | 18.3%
